Experimental data pooled from the literature.
Parts stem from different laboratories: compare values within a part only.

Study 1 — technique: RNA Bind-n-Seq; molecule type: RNA; medium: in vitro; tested at: not given; relative to: input RNA pool; reading: higher = stronger binding; measurement: bound/input enrichment
Target: RING finger protein unkempt homolog, zinc fingers 1-6, GST-SBP tag (UNK, Homo sapiens, UniProt Q9C0B0, residues 30-357)
Notes: RNA with constant flanks, human-mouse chimeric sites, ends assumed
Constant ends, left off below: GGGAGUUCUACAGUCCGACGAUC … CAACAGAGGAUUGAGCAUCA
Target sequence (chain): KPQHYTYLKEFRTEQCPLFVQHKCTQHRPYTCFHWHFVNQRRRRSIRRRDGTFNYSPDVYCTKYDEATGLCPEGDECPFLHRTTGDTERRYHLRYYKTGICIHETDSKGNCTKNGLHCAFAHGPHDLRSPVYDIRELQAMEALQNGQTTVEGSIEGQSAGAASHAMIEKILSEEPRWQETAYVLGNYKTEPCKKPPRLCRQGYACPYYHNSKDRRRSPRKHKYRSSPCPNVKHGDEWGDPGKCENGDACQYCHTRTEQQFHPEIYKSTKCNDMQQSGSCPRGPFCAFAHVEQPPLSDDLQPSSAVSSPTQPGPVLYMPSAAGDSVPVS
Sequence = CAGUCCCCGUGUCCCAGGGGACAAUGUUGUGAACAAAAACUCAAAGCGGACCCUCUAUUGUAGUUCUUUUUUUAAAUAAUGUGCUAUUAUUGUUUGUCUUUUUUUUUUUUUUUUUAAAGA; result = 3.18 ratio
Sequence = UAAGUUAUUUUGUACAGCUUUGUAAAUUGUAUAGCUUUUUAUAUUGCCAUGUUUAUUUUGUUUGGGUAAUUUGGUUCAUUAAGUACAUAGCUAAGGUACAUCUUUCAUUUUUCAGUAAUU; result = 1.83 ratio
Sequence = GGUGGGGGGUUGUCAUUGCCAAUUGAGGCUGAUUUUCAUGAGUCGCCUUCAAAACUCUCGUGUAGGGUUGACAAUGUGGGGGGGUGGGGGAUCCAGCUUAUUCUUUUAUUUUCAAGUCCA; result = 0.876 ratio
Sequence = UUUGUAUUCAUGUUAAGCACACGUGCUGGUGGUCUGGGCAUCAAUCUUGCAACUGCUGAUGUAGUCAUUUUAUAUGACUCAGAUUGGAAUCCCCAAGUUGAUCUUCAGGCUAUGGACCGU; result = 0.152 ratio
Sequence = UUACCCGAGAACGAGGAUGAGCUGGAGAGCACCAAUAGGCGCUACACCAAGAGAGACUGCAGCACUUUCCUCAGAACUAGUGAGACGGGCAUCGUGGACCAGGUCAUGGUCACUCUCAAC; result = 0.27 ratio
Sequence = GAAUCCUCCCGUGCAAAAUUUUGCAACACCAAGCUCACAGCAGCAGCAUCUUAGUCACAGUAGGGUAGCUUUAGGGCUCUGUGGCCAGGGUUUUAUUCACAUGCAGGUUUGGAAAAUGUA; result = 0.638 ratio
Sequence = CCCUCCCCGGGCCACCCGCCCGCCCAAGCUCCCCGCCGAGAUCCAGGUUUCUUCUUAUUUCAUAGCAAAUAAGAAAAAUGUUCUACGCACAUUUUGUUCUCAGUAAACGAGGGCCUCUGG; result = 0.44 ratio
Sequence = CACACACUCUUCUGCGGGACCCUCAUCUUGCAGGCCCGGGCCUAUGUGGGACCCCGUGUGCUAGCAGUGGUGACCCGCACAGGGUUCUGCACGGCAAAAGGGGGCCUGGUGAGCUCCAUC; result = 0.0619 ratio
Sequence = GGGACUGAUUCAUCCCAAGGACAGGCCACCCCAUUUGAUGCCUGGACUGAUGACAGUAUGUUAGGGCCUAGUCAAAAUGUUGAAGCUGAGUCAAUUCAAGAUAAUGCGAGUAUGGAAGAG; result = 0.872 ratio
Sequence = AUAGAUGAAAUUGAUGUGGACCAGGAAGGAAUUGCUGAAAUGAUCCUGGAUGAAAAUGCUAUUGCUCAGGUCCCACGCCCUGGCACAUCUUUGAAACUCCCUGGAACUAACCAAACAGGA; result = 0.401 ratio
Sequence = GUAUUUGUGCGCUCCCCACUCGUGUUUUUAAGUGUAUUUUUAUAAGAUACAUGUAUUUACAAUUGAGCUUUUGUUACAUAAUGCUGAAAUGCUACUGGAGAUUAUGAAAAAAUGUUAAAU; result = 0.187 ratio

Study 2 — technique: universal PBM; molecule type: double-stranded DNA, one strand shown; medium: in vitro; tested at: 600 nM; reading: higher = stronger binding; measurement: E-score
Target: Sal-like protein 4, full length isoform A (SALL4, Homo sapiens, UniProt Q9UJQ4, residues 1-1053)
Chain of UniProt Q9UJQ4 (whole entry, looked up): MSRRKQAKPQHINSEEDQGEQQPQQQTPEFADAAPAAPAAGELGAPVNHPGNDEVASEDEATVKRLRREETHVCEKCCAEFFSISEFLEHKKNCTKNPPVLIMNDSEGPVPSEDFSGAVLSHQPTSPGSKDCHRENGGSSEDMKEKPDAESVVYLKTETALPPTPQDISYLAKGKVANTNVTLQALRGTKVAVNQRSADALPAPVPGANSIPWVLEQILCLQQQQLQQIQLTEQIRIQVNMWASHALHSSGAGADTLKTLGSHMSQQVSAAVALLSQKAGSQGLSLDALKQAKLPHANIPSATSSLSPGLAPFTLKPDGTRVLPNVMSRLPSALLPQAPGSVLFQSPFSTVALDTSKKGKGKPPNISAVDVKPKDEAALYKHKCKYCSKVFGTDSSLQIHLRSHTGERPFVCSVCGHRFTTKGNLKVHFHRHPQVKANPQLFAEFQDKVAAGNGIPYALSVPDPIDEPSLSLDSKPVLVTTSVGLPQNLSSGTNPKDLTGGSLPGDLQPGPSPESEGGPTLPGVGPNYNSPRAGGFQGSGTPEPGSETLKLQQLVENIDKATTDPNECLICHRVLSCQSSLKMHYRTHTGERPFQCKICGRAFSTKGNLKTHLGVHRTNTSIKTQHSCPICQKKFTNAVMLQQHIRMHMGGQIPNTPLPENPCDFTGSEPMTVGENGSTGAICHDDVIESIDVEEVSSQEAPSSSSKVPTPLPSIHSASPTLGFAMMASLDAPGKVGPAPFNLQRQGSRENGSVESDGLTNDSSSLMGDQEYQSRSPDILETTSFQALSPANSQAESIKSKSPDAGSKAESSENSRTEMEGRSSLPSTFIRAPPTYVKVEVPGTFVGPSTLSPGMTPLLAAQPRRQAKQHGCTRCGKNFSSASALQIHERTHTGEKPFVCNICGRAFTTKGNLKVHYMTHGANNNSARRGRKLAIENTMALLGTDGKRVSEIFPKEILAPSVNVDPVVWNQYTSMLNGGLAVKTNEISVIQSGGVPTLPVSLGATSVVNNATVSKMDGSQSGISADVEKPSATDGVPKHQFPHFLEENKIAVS
Notes: 8-mer, flanks averaged, mean of replicates
Sequence = ACAGCTCG; result = -0.168
Sequence = TCAGTAAA; result = 0.117
Sequence = AGGCTAGG; result = -0.254
Sequence = GTACCCGA; result = -0.262
Sequence = CTTGTTCA; result = 0.0526
Sequence = AGCTGGTC; result = -0.113
Sequence = AAGAGTGC; result = -0.15
Sequence = CGGCCCAG; result = -0.407
Sequence = AGACTTTG; result = 0.0401
Sequence = CAGTGCTA; result = -0.0897
Sequence = GTGTCTGA; result = -0.00762
Sequence = CTCTATAC; result = 0.0535
Sequence = ACATACCA; result = 0.0875
Sequence = CTATGGGA; result = 0.00581
Sequence = ATCCGGGG; result = -0.135
Sequence = GATTGAGC; result = 0.0333
Sequence = ACCTATAG; result = 0.114
Sequence = AAGACAAA; result = 0.0786
Sequence = ACAATAGG; result = 0.16
Sequence = CTGGTAAA; result = 0.0272
Sequence = GTCGCCTA; result = -0.237
Sequence = CTGCAGCA; result = -0.0639
Sequence = CTTAAAAC; result = 0.157
Sequence = AAATGCCG; result = -0.0486
Sequence = AGCATGAG; result = -0.0671

Study 3 — technique: RNA Bind-n-Seq; molecule type: RNA; medium: in vitro; tested at: 365 nM; relative to: no-protein control; reading: higher = stronger binding; measurement: RBNS enrichment (R)
Target: RNA binding protein fox-1 homolog 2, RRM domain, GST-SBP tag (RBFOX2, Homo sapiens, UniProt O43251-10, residues 100-194)
Notes: natural RNA segment, single round, ends assumed
Constant ends, left off below: GGGAGUUCUACAGUCCGACGAUC … UGGAAUUCUCGGGUGCCAA
Target sequence (chain): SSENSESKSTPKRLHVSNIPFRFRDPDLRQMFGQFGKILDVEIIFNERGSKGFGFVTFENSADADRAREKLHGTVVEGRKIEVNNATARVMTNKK
Sequence = AUUUCCCCACCGCGUUGUGUCUGCAGCUUCUUUGCCAAUAUAGUAAUGCUUUUAGUAGAGUACUAGAUAGUAUCAGUUUUGGAUUCUUAUUGUUAUCACCUAUGUACAAU; result = 1.01
Sequence = CCUCUGUACCUGCUCUUGGAAUGUCUCUGUCUUUGCCCUGCCGCCCACUUCCCGUGCCUAUGAUUUGCUCUAGCAUUUCUGCCACCUGACAAGGAGAGGAGCUUGCUAAA; result = 0.68
Sequence = UUCGGCAUAGACUCGUGUAUUUUACCAGCCUAUAAUCGUGCUGAGUGUUGGUUUCCUGCCCCUCCUUCCCACCUUUCUGGUUCUGCAGACUUGGAGGGGUUUAUUGACUC; result = 0.581
Sequence = AAGAUGCAUGCGAUGAAUACCAACAAUAUCACUGAGCUAGUGAACUAUUUGGCAAAUGACUUAAGGUUAGAUGAAGCUUCAGUCUUGAUAACUGAAUAUUCAAAGCACUG; result = 4.79
Sequence = AUGCUAAACUAAGUCAACAGUGUCUCAGAACUGAAUAACUGCAGUGACUUGAUGCUCUAAAUCAUUGUAGGAUUUACCGCUAGAUGGUUUUGAACCCUUGAACCUGUGAU; result = 0.291
Sequence = CUGUCUUUUCGACUAAGUAGUAUUGUCAAGAUAAUGGGGCCUGUGACUUGAAUGGAUAGAAUAGAAAUGAAUAAGCUGGUUUUUGUUUUUCCAAAUGAGAUUUAGAUUUG; result = 0.595
Sequence = AGACUUGCAGGCAAUAAUCUCCGCCCUCCCAGUUGUACCUCCUCCCCACCUGCUUAUUUAAAAUCAAGUUUAUUGUAGAAAUGGUGUGGUGUUGAUGUGUGUUUUCCCUA; result = 0.335
Sequence = UGCAAAGCACCUGGAGAUGUUUGCUGGGAGAUAGACUCCCACUCCACAAAGGUGCUGGGUGGCUCUCCGGACAGGAGCUGGCCUGACUCUCACUCCUCUGAGGCUUUCCU; result = 5.19
Sequence = UUCCCACAAGUCAGGGGUCCAGAUAAAAUGAGGGUUAUCAGCUAACUGAUAUGCUAUCAUUGAGGUUCAUCAAUGAAUUUGUACAUUUCUAGUUCCCUUUGGUGAAGGGA; result = 0.24
Sequence = AGCAGAGCCUGAAAUUAAACUCAUUUGUUUCCAGCAUCCGUGUGUUUGCACAAAGGAUUUGACGCCACAGGAGUGUGUGAGGAAGACAGGGCGGGCUGAGGGCAGAAGGC; result = 1.36
Sequence = UCAAGGUCUGUAAUUGUAUUUCAAAAACGAUGUCGUAUUCAAGUUGUGAAGGGAUUUGUUUUGUCAAAAAAUUAAAAACUCAAUGUGUAUGACGCCACUCUGAAGAGUAG; result = 0.467
Sequence = GCAUCACAGUCAGAGGUCAGCAGGAAGCUGAGUCAUUACCUUCUUGGUGACCUCCCCCACCAUCUUGUCUCACUUGGAAACCGUUGUCAGUUUAUUUACUAUGCAAUAGA; result = 0.584

Study 4 — technique: RNA Bind-n-Seq; molecule type: RNA; medium: in vitro; tested at: 200 nM; notes: whole 134-nt RNA, ends assumed; added: 150 mM LiCl; relative to: input library; reading: higher = stronger binding; measurement: log2 enrichment; all molecules: 7-deaza-guanosine replaces G
Target: Fragile X messenger ribonucleoprotein 1, C-terminal low-complexity region (Fmr1, Mus musculus, UniProt P35922)
Constant ends, left off below: GGGAGUUCUACAGUCCGACGAUC … UGGAAUUCUCGGGUGUCAAGG
Sequence = CACAGACAACACGCACCCACACAGACACAGAGGGAAGGGGUUGGGAUGGGGACAGGGUGCACAGCAGGGCGGGGUAGGACCCCAGCUCCU; result = -0.783
Sequence = CCUCAAGUCCUGUGCUACACAUCGUAUGUACCGAAUCGGGGCGGGCGGGGCGGAAAGUAUUAUGUUACGCCGUUCGGAUCUGCACUUCCA; result = -1.19
Sequence = GCAGGAAGUAAAAACAAAUGGAAAUGCUUCGGAUAGUGGCAGGGGUGGAAAUUGCUAAGGAAAGGGUGGGAUGGGAGUGGGUAAAGAGUU; result = 1.42
Sequence = CUCAAGUCCUGUGCUACACAUCGUAUGUACCGAAUCGGUUUGGUUUUUGGAGGAAAGUAUUAUGUUACGCCGUUCGGAUCUGCACUUCCA; result = -0.119
Sequence = CCUGUGCUACACAUCGUAUGUACCGAAUCGGAAAAAAAGGGAAAAAAAGGAAAAAAAGGGGAAAGUAUUAUGUUACGCCGUUCGGAUCUG; result = -0.226
Sequence = ACCAUGCAGGUGGGCAUCUUUGGGAAGUGGGGCAAGGGGGGGAUAGGGAGGGGGGUACCACUUUGGGAACAGGUGGUCCCAGGUCGUUUC; result = 1.26
Sequence = ACCAUGCAGGUGGGCAAAAUUGGGAAGUGGGGCAAGGGGGGGAUAGGGAGGGGGGUAACACUUUGGGAACAGGUGGUCCCAGGUCGUUUC; result = 1.47
Sequence = UGAAAAUGCUUUCAUGUUAAUUGUGUACACACAUUUCAUCUGUAUCCCUGUUUCUUUUCUCCCUACAGAAACAUAUGAGGAUUUUGAUAC; result = 0.304
Sequence = CCUGUGCUACACAUCGUAUGUACCGAAUCGGGGAAAGGGGAAAAAGGGGUUUUUUUGGGGAAAGUAUUAUGUUACGCCGUUCGGAUCUGC; result = -0.55
Sequence = AAGUCCUGUGCUACACAUCGUAUGUACCGAAUCGGGGUGGGGAAAAAGGGGAGGGGAAAGUAUUAUGUUACGCCGUUCGGAUCUGCACUU; result = 0.357
Sequence = GUCCUGUGCUACACAUCGUAUGUACCGAAUCGGGGUUUGGGGAAAAAGGGGAAAGGGGAAAGUAUUAUGUUACGCCGUUCGGAUCUGCAC; result = 0.52

For quick reference, copied from above (study 2):
Sequence = ACAGCTCG; result = -0.168
Sequence = TCAGTAAA; result = 0.117
Sequence = ATCCGGGG; result = -0.135
Sequence = GTGTCTGA; result = -0.00762
Sequence = AAATGCCG; result = -0.0486
Sequence = GTCGCCTA; result = -0.237
Sequence = AGCATGAG; result = -0.0671
